Results of several laboratories.
Parts stem from different laboratories: compare values within a part only. Substitutions count along the parent as printed.

Block 1
Target: POU, POU domain (Salpingoeca helianthica)
Technique: Spec-seq
Molecule type: double-stranded DNA, one strand shown
Matrix: in vitro
Concentration: not given
Setting: whole probe, mean of replicates
Baseline: not given
Reading: lower = stronger binding
All sequences stand within: GAGTCGTCTCGTCAGCAC … CCGTAGAGCACTCAGGTC
Construct (chain): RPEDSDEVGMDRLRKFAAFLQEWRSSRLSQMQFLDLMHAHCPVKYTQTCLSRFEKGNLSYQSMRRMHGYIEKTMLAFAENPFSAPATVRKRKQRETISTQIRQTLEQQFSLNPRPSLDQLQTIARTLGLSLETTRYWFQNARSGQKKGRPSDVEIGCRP
Under “relative binding energy”, `ATATGCAT` is recorded as 0.95 ln ratio.
For `GTCTTAAT`, “relative binding energy” read 0.455 ln ratio.
`ATGCTAGC`: “relative binding energy” 1.33 ln ratio.
Under “relative binding energy”, `ATGCAGGA` is recorded as 1.1 ln ratio.
For `GATATAAT`, “relative binding energy” read 0.26 ln ratio.
For `CGCTTAAT`, “relative binding energy” read 0.442 ln ratio.
`ATGCAGTT` — result for “relative binding energy”: 1.4 ln ratio.
`ATGCTGAT` — result for “relative binding energy”: 1.22 ln ratio.

Block 2
Target: Phosphate system positive regulatory protein PHO4, full length, GST-tagged (PHO4, Saccharomyces cerevisiae, UniProt P07270, residues 1-312)
Technique: competition protein-binding microarray
Molecule type: double-stranded DNA, one strand shown
Matrix: in vitro
Concentration: 2 µM
Setting: whole 60-bp probe, lowest competitor level
With: Cbf1 competitor, 0.05 µM
Reading: higher = stronger binding
Construct (chain): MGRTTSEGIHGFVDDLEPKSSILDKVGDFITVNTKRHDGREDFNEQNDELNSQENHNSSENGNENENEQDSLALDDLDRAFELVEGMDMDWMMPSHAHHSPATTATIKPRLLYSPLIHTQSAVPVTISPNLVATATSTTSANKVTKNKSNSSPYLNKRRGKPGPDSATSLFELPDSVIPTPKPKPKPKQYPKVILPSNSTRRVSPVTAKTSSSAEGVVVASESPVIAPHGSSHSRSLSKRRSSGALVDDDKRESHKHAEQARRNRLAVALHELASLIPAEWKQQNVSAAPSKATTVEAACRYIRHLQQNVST
`CTTTCCCGATCTTGCCCGGTGGGTGTAGCACATTTGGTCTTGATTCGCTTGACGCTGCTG` gave a fluorescence intensity of 4670 a.u.
With `GGAATTGGTTCACTGATTGAAAGTGATTTTGAGAGGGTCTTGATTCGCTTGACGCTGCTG` the fluorescence intensity was 2820 a.u.
The fluorescence intensity of `GGAACCGTCTGCAGCGATGTGACGGGTCTTGTAACCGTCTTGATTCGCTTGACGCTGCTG` is reported as 3400 a.u.
`TGCGCAACAACTTTTCACGTGTGTTTATGTCTAGAAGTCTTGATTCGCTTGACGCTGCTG` has a fluorescence intensity of 13300 a.u.
`CCGATCTCTTTCCGACACGTGGAGGAGACATGAAAGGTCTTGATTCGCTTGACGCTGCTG` gave a fluorescence intensity of 19000 a.u.
For `CCAAGGGATTACCATCACGTAAGACTCTTGATCCTTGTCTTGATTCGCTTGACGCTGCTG`, the fluorescence intensity was 3260 a.u.
The fluorescence intensity of `CCTTTGAAACGTACCCACGCATTTGCTAAAGAAAAAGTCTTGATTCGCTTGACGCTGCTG` is reported as 8530 a.u.
For `TGCGCAACAACTTGTCAAGTGGGTGTATGTCTAGAAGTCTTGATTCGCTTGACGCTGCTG`, the fluorescence intensity was 5000 a.u.

Block 3
Target: Hepatocyte nuclear factor 3-alpha (Foxa1, Mus musculus, UniProt P35582, residues 1-468, full length assumed)
Sequence of UniProt P35582 (whole entry, looked up): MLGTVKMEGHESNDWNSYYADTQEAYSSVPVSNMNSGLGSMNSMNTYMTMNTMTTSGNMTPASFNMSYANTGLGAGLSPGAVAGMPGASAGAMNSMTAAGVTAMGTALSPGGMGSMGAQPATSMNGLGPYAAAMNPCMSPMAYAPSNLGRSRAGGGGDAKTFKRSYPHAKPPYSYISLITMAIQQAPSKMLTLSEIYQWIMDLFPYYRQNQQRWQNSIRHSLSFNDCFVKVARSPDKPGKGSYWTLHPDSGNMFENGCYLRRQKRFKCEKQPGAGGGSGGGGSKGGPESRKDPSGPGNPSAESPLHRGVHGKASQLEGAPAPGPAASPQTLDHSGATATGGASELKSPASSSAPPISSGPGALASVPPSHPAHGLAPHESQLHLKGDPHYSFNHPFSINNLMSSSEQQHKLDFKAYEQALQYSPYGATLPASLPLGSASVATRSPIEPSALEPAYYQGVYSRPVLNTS
Technique: EMSA with sequencing
Molecule type: double-stranded DNA, one strand shown
Matrix: in vitro
Concentration: 10 and 20 nM
Setting: whole designed probe, mean of two concentrations, ends assumed
Baseline: negative control set to 0
Reading: higher = stronger binding
Under “normalised bound fraction”, `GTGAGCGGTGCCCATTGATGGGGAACTTTTCTTCTGGAAATTTACTATATGTAAAAAAGAAGGCAGGAAGGGAATTAAAGGAAAAAGTCCATTCTTCTGATGGCCTTTAAGTATCAAAGTAATCTGAAAATAACCTATTCCAACTACTGTTCCCATTGCTAAAATTGTCTTTTATAAATTTAAGAAAAAATATTAGTAGCAAACATATGATGCAAAGGATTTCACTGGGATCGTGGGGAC` is recorded as -0.0602 ratio.
Under “normalised bound fraction”, `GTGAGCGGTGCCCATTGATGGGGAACTGCTCTTGATTCAAATGCATGCTGAGCTTTCCCTGATCAGCTTGTTCCTTTGGGCGATATCACAATTTCATCTTGTTCAAGCTGTCTACATTCCTGTTTACTTAGGTTTGCAAATAGAACTTTAGCACTCAAATTAGTACTGACAGAACAACCTGCAAGTATTCTAAATCCTCATTTGCCTTCATTCCAAGGGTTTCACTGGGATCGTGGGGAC` is recorded as 0.364 ratio.
`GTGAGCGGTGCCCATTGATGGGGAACGTTGACTAGAAATACTGAGTAGCAGGGTAATGAAAAGCATGGTGATCATATTGAAGAAGTGGGAAAAAAAAAGCAAAGGTAGCAACTGCTCTTGTTTACACTGTAAATGTTCTGGCTCACTTGTGAAATATTCACCTTTTTCTTTGCAGTTGATAATATCCATTTTAACACAAAAATAATTTGCTTCTTCCACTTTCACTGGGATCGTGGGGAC` — result for “normalised bound fraction”: 0.331 ratio.
For `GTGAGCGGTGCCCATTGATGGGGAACATCTTCCCCCTCTTCCTTGCCCCACCAGCTCACCTACGGGGGTTATTTGCACAAAGGAAAATAAATAAAGCCGGCATTCGTTAACCCTCTTCACGCGCATACTGCTGTTTGCTCTGCATGAATCATGGTCCTTACGCGAGGCGTGGCTCCGGGAGAGCAAAGCACCGTGTCAGGCGCATGATCCGGGCTCGCCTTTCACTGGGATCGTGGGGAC`, “normalised bound fraction” read 0.39 ratio.
`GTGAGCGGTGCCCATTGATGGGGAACACTGTAGTGACTCATGTCCAGCCCCAGTGCGAGTGTGTTCCTCTCTAAAGAAAACCCAGTGTGTGTGTTCTCTCTAAAGAAAATGTATTACTAAGTAATCTAAAAAAGCTACTAAGCTTAAAGTTACCAAAACAAGTTCCAGATGAGCAGGGCCCAGAGGCATTTTCTGAAGAAGAGCCGTGCCCTGCCTTATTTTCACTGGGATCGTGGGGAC` — result for “normalised bound fraction”: -0.00773 ratio.
`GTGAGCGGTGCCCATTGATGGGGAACATCTTCCCCCTCTTCCTTGCCCCACCAGCTCACCTACGGGGGTTATTTGCAGATAGGAAAATAAATAAAGCCGGCATTCGTTAACCCTCTTCACGCGCATACTGCTGTTTGCTCTGCATGAATCATGGTCCTTACGCGACGCCAGGCTCCGGGAGAGCAAAGCACCGTGTCAGGCGCATGATCCGGGCTCGCCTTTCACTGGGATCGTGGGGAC` — result for “normalised bound fraction”: 0.347 ratio.
Under “normalised bound fraction”, `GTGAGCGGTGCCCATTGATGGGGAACTAATAACGGCAATTCAGCACCCTCTTTCAAAGTAATATCACTGCAAATGGATCAGATAATAAAATGGAGCACTATAGCAATTCTGTGCACAAAATAATTTAGAAACCTGAACGCCCTGACAATGGTTCTACAATGAACACCAGAAAATTCCAAGCTAAACCACTGGTTCAACCCACTTACTGGGTTAAAGAGATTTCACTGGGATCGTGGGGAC` is recorded as -0.0569 ratio.
`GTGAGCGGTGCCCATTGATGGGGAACTTTCAGATAGCTCTAGCTTCTGCCATCTTGAGTAATAAAATATGATTTACTGCTCTGCACCCTGCCAAGGATTACTCAAGATACATAGACTCATGTTGACTTAGGATTGCTGCTAAAAATGAATTGACAGCAGTATGATTTCTGGATTTAAAAGAGGTCATAAACAGACTTTGATAAGTGATATTTTATGTAGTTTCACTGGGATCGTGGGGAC`: “normalised bound fraction” 0.249 ratio.

Other studies, line by line
Starting sequence: viral docking peptide; CKVKRKLFGSENI
`N12A`: “normalised enrichment score” 3.12 (CCNE2, cyclin fold, Cln2 fusion (human); yeast growth competition, sequencing; yeast; strong parent motif; baseline: not given, higher = stronger binding).

For quick reference, copied from above (block 1):
`ATGCTGAT` — result for “relative binding energy”: 1.22 ln ratio.
`ATGCTAGC`: “relative binding energy” 1.33 ln ratio.
